Assay results from different studies.
Each line is one published result; not all experiments were run side by side. Values joined by “and” are separate records of one study, mostly repeats; a detail may differ. ± marks the error that the study gave.

Structure (SMILES) = Cc1noc(C)c1-c1cc(C(O)(c2ccccn2)c2ccccn2)c2nc(C3CC3)[nH]c2c1; system = human, fasted, plasma; setting = oral, 6 mg, cycle 1 day 15, with: enzalutamide once daily; Tmax = 0.5 h
Structure (SMILES) = Cn1ncnc1[C@H]1c2n[nH]c(=O)c3cc(F)cc(c23)N[C@@H]1c1ccc(F)cc1; system = human patients, plasma; setting = oral, 600 µg/m2 twice daily day 1, day 5, dose level DL5, median, with: temozolomide 40 mg/m2 daily days 2-6; Tmax = 1 h
Structure (SMILES) = CC(C)=CCC/C(C)=C/CC/C(C)=C/CC[C@@](C)(O)CCC1=C(C)C(=O)C(C)=C(C)C1=O; system = human, plasma; setting = oral, 400 mg, with: itraconazole 200 mg; scale = baseline: without itraconazole; Tmax = no effect
Structure (SMILES) = Cc1nc(-c2ccc(OCC(C)C)c(C#N)c2)sc1C(=O)O; system = human, plasma; setting = oral, 20 mg once daily, with: verinurad 2.5 mg; Tmax = 3 h
Structure (SMILES) = C[C@H](O)C(=O)C1=Nc2c(nc(N)[nH]c2=O)NC1; system = human; setting = 20 mg/kg, compound alone; Tmax = 5 h
Structure (SMILES) = Cc1cc(-c2nnc(N)nc2-c2ccc(F)cc2)cc(Cl)n1; system = human patients, plasma; setting = oral, 100 mg nanosuspension once daily, multiple doses, median; Tmax = 1 h
Structure (SMILES) = CC1(COc2ccc3c(c2)ncn3-c2ccc3cccc(N4CCC(N)CC4)c3n2)COC1; system = human patients, recurrent/progressive HGG or DIPG, serum; setting = oral, 220 mg/m^2, day 1, median; Tmax = 2 h
Structure (SMILES) = CC(F)(F)c1cc(F)ccc1-c1sc2cc(O)ccc2c1Oc1ccc(/C=C/C(=O)O)cc1; system = human, serum; setting = oral, 450 mg once daily, cycle 1 day 28, fasted, median; Tmax = 2 h
Structure (SMILES) = COc1nnc2ccc(N3CCC(c4ccc(OCCN5CCN(C)C(=O)[C@H]5C)cc4)CC3)nn12; system = human, plasma; setting = oral, 5 mg once daily, single dose, monotherapy; Tmax = 1.12 h
Structure (SMILES) = COc1c(OCCCN2CCOCC2)ccc2c1N=C(NC(=O)c1cnc(N)nc1)N1CCN=C21; system = human, plasma; setting = intravenous, 0.6 mg/kg, cycle 1 day 1, median, with: gemcitabine; Tmax = 1.03 h
Structure (SMILES) = CN(C)C(=O)c1cc2cnc(Nc3ccc(N4CCNCC4)cn3)nc2n1C1CCCC1; system = human, severe renal impairment, plasma; setting = oral, 400 mg, median; Tmax = 2 h
Structure (SMILES) = Cc1cc(/C=C/C#N)cc(C)c1Nc1ccnc(Nc2ccc(C#N)cc2)n1; system = human, haemodialysis, plasma; setting = oral, dose not given, steady state, median; Tmax = 2.3 h
Structure (SMILES) = CC(C)[C@H](N)C(=O)NCCCS(=O)(=O)O; assay = median; system = human, plasma; setting = oral, 256.5 mg once daily, day 1, fasted, capsule; Tmax = 0.5 h
Structure (SMILES) = CC(C)(C(=O)NC1C2CC3CC1CC(C(N)=O)(C3)C2)N1CCN(c2ccc(C(F)(F)F)cn2)CC1 (stereo not shown); assay = measured: metabolite; system = human, CSF; setting = oral, 10 mg once daily, 5 days, median; Tmax = 2.5 h
Structure (SMILES) = CCO; assay = gas chromatography; system = human, plasma; setting = 0.5 g/kg, alone, median; Tmax = 0.5 h
Structure (SMILES) = CC1=C(c2cccc(O)c2)[C@H](c2ccc(OCCN3CC(CF)C3)cc2)Oc2ccc(O)cc21; system = human, plasma; setting = oral, 1000 mg once daily, steady state median; Tmax = 3 h
Structure (SMILES) = O=C(c1cc(Cc2n[nH]c(=O)c3ccccc23)ccc1F)N1CCN(C(=O)C2CC2)CC1; system = human, female, plasma; setting = oral, 250 mg twice daily, with: abemaciclib; Tmax = 2 h
Structure (SMILES) = N#Cc1cc(NC(=O)[C@H]2c3ccccc3C(=O)N(CC(F)(F)F)[C@@H]2c2cccnc2)ccc1F; system = human, plasma; setting = oral, 900 mg, median; Tmax = 1.5 h
Structure (SMILES) = Cc1ncnc2c1ccn2[C@@H]1C[C@H](Oc2cc(C(F)F)c(F)c3c2CNCC3)[C@@H](O)[C@H]1O; system = human; setting = oral, 6 mg twice daily; Tmax = 1 h
Structure (SMILES) = C#C[C@]1(COP(=O)(O)O)O[C@@H](n2cnc3c(N)nc(F)nc32)C[C@@H]1O; assay = measured: islatravir triphosphate; system = human, PBMC; setting = oral, 100 mg single dose; Tmax = 6 h
Structure (SMILES) = Cn1c(=O)oc2ccc(-c3ccc(C[C@@H](C#N)NC(=O)[C@@H]4CNCCCO4)cc3)cc21; system = human, mild renal impairment, plasma; setting = oral, 25 mg single dose, median; Tmax = 1 h
Structure (SMILES) = CCn1cc(C(=O)N2CCOCC2)c(=O)c2cc(NC3Cc4ccccc4C3)cnc21; system = human, fasted; setting = oral suspension, 1200 mg single dose, median; Tmax = 2 h
Structure (SMILES) = COc1cc(C(=O)NC2CCN(C)CC2)c(F)cc1Nc1ncc(C(F)(F)F)c(Oc2cccc3c2C(=O)N(C)C3)n1; system = human patients, plasma; setting = oral, 25 mg single dose, median; Tmax = 2 h
Structure (SMILES) = C#C[C@]1(CO)O[C@@H](n2cnc3c(N)nc(F)nc32)C[C@@H]1O; system = human, plasma; setting = oral, 15 mg, single dose, median; Tmax = 0.5 h
Structure (SMILES) = C[C@H](NC(=O)/C(C#N)=C/c1cccc(Br)n1)c1ccccc1; assay = LC-MS/MS; system = human, plasma; setting = oral, 1 mg/kg, cycle 1 day 1; Tmax = 0.5 h
Structure (SMILES) = COc1ncc(-c2nc3c(n2C(C)C)[C@H](c2ccc(Cl)cc2)N(c2cc(Cl)cn(C)c2=O)C3=O)c(OC)n1; assay = LC-MS/MS, noncompartmental; system = human, plasma; setting = oral, 120 mg, C1D8, high-dose, median; Tmax = 3.9 h
Structure (SMILES) = C[C@H](Oc1ccc(Br)cc1-c1ccon1)C(=O)O; assay = LC-MS/MS, non-compartmental; system = human, plasma; setting = 200 mg once daily, day 1, multiple ascending dose, median; Tmax = 3.5 h
Structure (SMILES) = Fc1ccc([C@@H]2CCNC[C@H]2COc2ccc3c(c2)OCO3)cc1; system = human, all CYP2D6 genotypes; setting = oral, 20 mg, steady state, geometric mean; Tmax = 4.3 h
Structure (SMILES) = CN(CC#N)C(=O)C[C@H](Nc1nc2ccccc2[nH]1)c1cccc(C(F)(F)F)c1; system = human; setting = intravenous infusion, 4 mg/kg, 1 mg/mL formulation; Tmax = 0.49 ± 0.01 h
Structure (SMILES) = Cc1cc(-c2nccc3c2ccn3CC(=O)Nc2ccc(-c3cnccn3)cn2)ccn1; system = human, plasma; setting = oral, 20 mg once daily, day 1, median; Tmax = 0.98 h
Structure (SMILES) = Cn1cc(-c2ccc(S(=O)(=O)[C@@H]3C[C@@H](C(=O)NC4(C#N)CC4)N(C(=O)C4(C(F)(F)F)CC4)C3)c(C(F)(F)F)c2)cn1; assay = noncompartmental analysis; system = human, plasma; setting = oral, 100 mg, day 1, with food, median; Tmax = 5 h
Structure (SMILES) = CCN(CC)Cc1cc(Nc2ccnc3cc(Cl)ccc23)ccc1O; system = human, both sexes, plasma; setting = oral, dose not given, non-fixed combination; Tmax = 1.55 h
Structure (SMILES) = C[C@@H](Nc1cc(F)cc(F)c1)c1cc(C(=O)N(C)C)cc2c(=O)cc(N3CCOCC3)oc12; assay = measured: M1 metabolite; system = human; setting = oral, 120 mg, single dose day 1, 2:5 BID regimen; Tmax = 3.65 h
Structure (SMILES) = N#CCC1CCN(c2nc(Nc3ccc(N4CCC(O)CC4)cc3)c3c(=O)[nH]ncc3n2)CC1; assay = LC-MS/MS; system = human, plasma; setting = oral, 40 mg once daily, day 15, median; Tmax = 2 h
Structure (SMILES) = N#Cc1cccc(-c2ccc3ncc(-c4cc(F)cc(F)c4)c(N4CCC(N)CC4)c3c2)c1O; system = male human, plasma; setting = intravenous, 50 µg, median, first sampling point; Tmax = 0.0333 h
Structure (SMILES) = COc1c(C)c2c(c(O[C@@H]3O[C@H](C(=O)O)[C@@H](O)[C@H](O)[C@H]3O)c1C/C=C(\C)CCC(=O)O)C(=O)OC2; assay = measured: mycophenolic acid; system = healthy human subjects, plasma; setting = oral, 1 g mycophenolate mofetil, median, with isavuconazole; Tmax = 1 h
Structure (SMILES) = CC(=O)O.NC(=O)c1cnc(N[C@@H]2CCCC[C@@H]2N)nc1Nc1cccc(-n2nccn2)c1; system = human, plasma; setting = oral, 110 mg once daily; Tmax = 3.03 h
Structure (SMILES) = COc1ccc2nc([S@@+]([O-])Cc3ncc(C)c(OC)c3C)[nH]c2c1; system = human, dried blood spots; setting = oral, 10 mg omeprazole; Tmax = 2 h
Structure (SMILES) = Cc1cc(Nc2cc3ncccc3c(N[C@@H]3C[C@H]4CC[C@@H](C3)N4CCC#N)n2)n[nH]1; system = human, plasma; setting = 300 mg single dose, median; Tmax = 0.76 h
Structure (SMILES) = Cn1nnc2c(C(N)=O)ncn2c1=O; system = human patients, plasma; setting = oral, 55 mg/m2, day 5, dose level DL6, median, with: talazoparib 600 µg/m2; Tmax = 1 h
Structure (SMILES) = COc1cc([C@@H]2Oc3ccc([C@H]4Oc5cc(O)cc(O)c5C(=O)[C@@H]4O)cc3O[C@H]2CO)ccc1O; system = OATP1B1/1B3 humanized mice, plasma; setting = oral gavage, 500 mg/kg silymarin, median; Tmax = 0.25 h
Structure (SMILES) = COc1cc(-c2cnc3cc(OCCN4CCOCC4)ccn23)cc2c1C(=O)N(CC(F)(F)F)CC2; assay = LC-MS; system = human, plasma; setting = oral, 350 mg, day 5, with: sulfasalazine 1000 mg; Tmax = 0.5 h
Structure (SMILES) = CO[C@H]1/C=C/O[C@@]2(C)Oc3c(C)c(O)c4c(O)c(c(/C=N/N5CCN(C)CC5)c(O)c4c3C2=O)NC(=O)/C(C)=C\C=C\[C@H](C)[C@H](O)[C@@H](C)[C@@H](O)[C@@H](C)[C@H](OC(C)=O)[C@@H]1C; system = healthy human subjects, plasma; setting = oral, first dose, with: glecaprevir and pibrentasvir single dose; Tmax = 4 h
Structure (SMILES) = Cc1cn(C(=O)c2c(-c3c(Cl)cc(Cl)cc3Cl)noc2C(C)(C)F)c2cccc(/C=C/C(=O)O)c12; system = human patients; setting = 1400 mg bid, cycle 8 day 1; Tmax = 4.05 h
Structure (SMILES) = N[C@](CO)(CCc1ccc(Sc2cccc(OCc3ccccc3)c2)cc1Cl)COP(=O)(O)O; system = human fasted, blood; setting = 3 mg MOC, with: cyclosporin 100 mg b.i.d.; Tmax = 6 h
Structure (SMILES) = COCCc1ccc(OCC(O)CNC(C)C)cc1 (stereo not shown); system = human; Tmax = 4 h
Structure (SMILES) = Cc1cc(C)c(CNC(=O)c2cc(Cl)c3c(c2C)O[C@@](C)([C@H]2CC[C@H](N(C)C)CC2)O3)c(=O)[nH]1; assay = median; system = healthy male humans, plasma; setting = oral, 25 mg, day 12, with: fluconazole; Tmax = 4 h
Structure (SMILES) = NC(=S)NN=Cc1ncccc1N; system = human, plasma; setting = intravenous, 50 mg, geometric mean; Tmax = 1.7 h
Structure (SMILES) = CCCCCCCOc1ccc(CCC(N)(CO)CO)cc1C(F)(F)F.Cl; system = healthy human males, plasma; setting = oral, 0.75 mg, day 1, median; Tmax = 12 h
Structure (SMILES) = CCOc1c([C@H](C)n2nc(C)c3c(N)ncnc32)cc(Cl)c(F)c1[C@@H]1CNC(=O)C1; system = human patients, plasma; setting = oral, 15 mg once daily, cycle 1 day 15, monotherapy, median; Tmax = 1 h
Structure (SMILES) = COc1ccc2c3c1O[C@H]1C[C@@H](OC(=O)c4ccccc4)C=C[C@@]31CCN(C)C2; system = human, plasma; setting = intranasal, 11 mg single dose; Tmax = 0.25 h and 0.5 h
Structure (SMILES) = C[C@@H](c1ccc2nccn2c1)n1nnc2ncc(-c3cnn(C)c3)nc21; system = human, plasma; setting = oral, cycle 1 day 1, single dose, all, median; Tmax = 2.23 h

Repeated from above:
Structure (SMILES) = C[C@@H](Nc1cc(F)cc(F)c1)c1cc(C(=O)N(C)C)cc2c(=O)cc(N3CCOCC3)oc12; assay = measured: M1 metabolite; system = human; setting = oral, 120 mg, single dose day 1, 2:5 BID regimen; Tmax = 3.65 h
Structure (SMILES) = COc1ccc2nc([S@@+]([O-])Cc3ncc(C)c(OC)c3C)[nH]c2c1; system = human, dried blood spots; setting = oral, 10 mg omeprazole; Tmax = 2 h
Structure (SMILES) = N#CCC1CCN(c2nc(Nc3ccc(N4CCC(O)CC4)cc3)c3c(=O)[nH]ncc3n2)CC1; assay = LC-MS/MS; system = human, plasma; setting = oral, 40 mg once daily, day 15, median; Tmax = 2 h
Structure (SMILES) = C[C@H](Oc1ccc(Br)cc1-c1ccon1)C(=O)O; assay = LC-MS/MS, non-compartmental; system = human, plasma; setting = 200 mg once daily, day 1, multiple ascending dose, median; Tmax = 3.5 h
Structure (SMILES) = Cc1cc(-c2nnc(N)nc2-c2ccc(F)cc2)cc(Cl)n1; system = human patients, plasma; setting = oral, 100 mg nanosuspension once daily, multiple doses, median; Tmax = 1 h
Structure (SMILES) = Cn1ncnc1[C@H]1c2n[nH]c(=O)c3cc(F)cc(c23)N[C@@H]1c1ccc(F)cc1; system = human patients, plasma; setting = oral, 600 µg/m2 twice daily day 1, day 5, dose level DL5, median, with: temozolomide 40 mg/m2 daily days 2-6; Tmax = 1 h
Structure (SMILES) = CC(C)=CCC/C(C)=C/CC/C(C)=C/CC[C@@](C)(O)CCC1=C(C)C(=O)C(C)=C(C)C1=O; system = human, plasma; setting = oral, 400 mg, with: itraconazole 200 mg; scale = baseline: without itraconazole; Tmax = no effect
Structure (SMILES) = COc1cc([C@@H]2Oc3ccc([C@H]4Oc5cc(O)cc(O)c5C(=O)[C@@H]4O)cc3O[C@H]2CO)ccc1O; system = OATP1B1/1B3 humanized mice, plasma; setting = oral gavage, 500 mg/kg silymarin, median; Tmax = 0.25 h
Structure (SMILES) = Cc1cc(Nc2cc3ncccc3c(N[C@@H]3C[C@H]4CC[C@@H](C3)N4CCC#N)n2)n[nH]1; system = human, plasma; setting = 300 mg single dose, median; Tmax = 0.76 h
